Results gathered from unrelated publications.
Each line is one published result; not all experiments were run side by side. Numbers after ± are the reported error.
Target: Cytochrome P450 3A4 (CYP3A4, Homo sapiens, UniProt P08684)
Sequence of UniProt P08684 (whole entry, looked up): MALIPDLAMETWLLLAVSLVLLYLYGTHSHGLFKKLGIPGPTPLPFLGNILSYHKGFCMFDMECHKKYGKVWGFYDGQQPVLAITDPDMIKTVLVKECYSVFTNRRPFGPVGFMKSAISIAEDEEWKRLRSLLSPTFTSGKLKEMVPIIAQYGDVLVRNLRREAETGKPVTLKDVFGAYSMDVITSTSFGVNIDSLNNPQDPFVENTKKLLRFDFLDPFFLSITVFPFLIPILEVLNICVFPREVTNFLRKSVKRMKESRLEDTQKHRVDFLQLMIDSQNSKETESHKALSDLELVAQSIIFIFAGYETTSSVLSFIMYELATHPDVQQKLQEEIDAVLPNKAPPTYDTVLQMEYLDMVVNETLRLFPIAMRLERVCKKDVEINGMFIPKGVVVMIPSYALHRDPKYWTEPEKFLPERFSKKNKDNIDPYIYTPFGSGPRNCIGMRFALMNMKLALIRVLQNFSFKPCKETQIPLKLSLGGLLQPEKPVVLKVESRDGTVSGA

Structure (SMILES) | test | system | setting | how to read | quantity | result
CC(=O)C(C)n1ncn(-c2ccc(N3CCN(c4ccc(OC[C@H]5CO[C@](Cn6cncn6)(c6ccc(Cl)cc6Cl)O5)cc4)CC3)cc2)c1=O (some centres unmarked) | inhibitor | human liver microsomes | together with: midazolam | – | IC50 | 0.009 µM
CC(=O)c1c(C)c2cnc(Nc3ccc(C4CCN(CCS(C)(=O)=O)CC4)cn3)nc2n(C2CCCC2)c1=O | substrate | recombinant enzyme | time not given | baseline: initial | remaining compound | 21.8%
CCC[C@@](N)(CO)CCc1ccc(OCCCCCC(C)C)cc1 | enzyme activity, inhibitor | – | together with: testosterone | – | IC50 | 17.6 µM
CNCCN1C(=O)[C@H](OC(C)=O)[C@H](c2ccc(OC)cc2)Sc2ccccc21 | inactivator | – | – | – | kinact | 0.036 ± 0.001 min⁻¹
CSc1ccccc1C(=O)NCCn1cc(C(=O)NCc2cccc(C)n2)c(=O)c2cc3c(cc21)OCO3 | enzyme activity, inhibitor | human liver microsomes | 20 min, 30 min NADPH preincubation, together with: midazolam 5 µM | – | IC50 | 8.61 µM
OCc1ncc2n1-c1ccc(Cl)cc1C(c1ccccc1F)=NC2 | – | human, plasma | 2 mg, alone, arithmetic mean | – | Cmax | 3.73 ng/mL
CC(C)CC(=O)OC[C@H]1O[C@@](C#N)(c2ccc3c(N)ncnn23)[C@H](O)[C@@H]1O | metabolic stability | recombinant enzyme | 1 µM | – | intrinsic clearance | 6.37 ± 0.0905 µL/min/pmol
CSc1ccccc1C(=O)NCCn1cc(C(=O)NCc2cccc(C)n2)c(=O)c2cc3c(cc21)OC(F)(F)O3 | enzyme activity, inhibitor | human liver microsomes | 20 min, no NADPH preincubation, together with: midazolam 5 µM | – | IC50 | > 100 µM
O=C(Nc1ccc(N2CCC3(CCC3)CC2)c(C(F)(F)F)c1)c1ccc(C(=O)N2C[C@@H]3C[C@H]2CO3)nc1 | – | – | 10 µM, 20 (unit not given) | – | inhibition | 0%
Cc1ncc2n1-c1ccc(Cl)cc1C(c1ccccc1F)=NC2 | – | human, plasma | oral, 2 mg, day 1, alone, arithmetic mean | – | Vd/F | 446 L
CCC[S+]([O-])c1ccc2[nH]c(NC(=O)OC)nc2c1 (centres unmarked) | inhibitor | – | 10 µM, pH 7.4 | – | inhibition | 5%

A few entries again:
Structure (SMILES) | test | system | setting | how to read | quantity | result
OCc1ncc2n1-c1ccc(Cl)cc1C(c1ccccc1F)=NC2 | – | human, plasma | 2 mg, alone, arithmetic mean | – | Cmax | 3.73 ng/mL
CC(C)CC(=O)OC[C@H]1O[C@@](C#N)(c2ccc3c(N)ncnn23)[C@H](O)[C@@H]1O | metabolic stability | recombinant enzyme | 1 µM | – | intrinsic clearance | 6.37 ± 0.0905 µL/min/pmol
